Published values pooled from the literature.
Lines come from different studies, so protocols differ. Numbers after ± are the reported error.

| SMILES | assay | system | conditions | half-life [h] |
| --- | --- | --- | --- | --- |
| CC[C@H](C)[C@@H]1NC(=O)[C@H](CO)NC(=O)[C@H](CCCCN)NC(=O)[C@@H]2CSSC[C@@H](C(=O)N[C@@H](Cc3ccc(O)cc3)C(N)=O)NC(=O)[C@H](CCCCN)NC(=O)[C@@H]3CSSC[C@H](NC(=O)[C@H](CCCNC(=N)N)NC(=O)[C@H](CC(C)C)NC(=O)[C@H](CC(=O)O)NC(=O)[C@H](CC(=O)O)NC(=O)[C@H](CCC(=O)O)NC(=O)[C@H](CC(N)=O)NC(=O)[C@H](Cc4c[nH]c5ccccc45)NC(=O)C(C)(CC)NC(=O)CNC(=O)[C@H](CC(N)=O)NC(=O)[C@@H](NC(=O)CNC(=O)[C@H](Cc4ccccc4)NC(=O)CN)CSSC[C@H](NC(=O)[C@H](Cc4ccc(O)cc4)NC(=O)CNC(=O)CNC(=O)[C@H](CCCCN)NC(=O)[C@H](Cc4ccc(O)cc4)NC(=O)[C@H]4CCCN4C(=O)[C@@H]4CCCN4C1=O)C(=O)N[C@@H](C)C(=O)N[C@@H](CCCCN)C(=O)N1CCC[C@@H]1C(=O)NCC(=O)N[C@@H](Cc1ccccc1)C(=O)N[C@@H](C(C)C)C(=O)N3)C(=O)N[C@@H](Cc1c[nH]cn1)C(=O)N[C@@H](CC(N)=O)C(=O)N[C@@H](Cc1c[nH]cn1)C(=O)N2 (stereo partly drawn) | HPLC | trypsin digestion | 13.2 µM, pH 8.5, room temperature, together with: trypsin 0.9 µM | 7.7 |
| O=c1[nH]c2ccccc2c(=O)o1 | chemical stability, HPLC-MS | borate buffered saline | pH 10.2, no N-acetyl-lysine | 0.3 |
| CSCC[C@H](NC(=O)[C@H](Cc1ccccc1)NC(=O)CNC(=O)[C@@H](C)NC(=O)[C@@H](N)Cc1ccc(O)cc1)C(=O)N1CCC[C@H]1C(=O)N[C@@H](CC(C)C)C(=O)N[C@@H](Cc1c[nH]c2ccccc12)C(=O)NCc1cc(C(F)(F)F)cc(C(F)(F)F)c1 | – | rat plasma | 50 µg/mL, 37 °C | 4.8 |
| CC[C@H](C)[C@@H]1NC(=O)[C@H](CO)NC(=O)[C@H](CCCCN)NC(=O)[C@@H]2CSSC[C@@H](C(=O)N[C@@H](Cc3ccc(O)cc3)C(N)=O)NC(=O)[C@H](CCCCN)NC(=O)[C@@H]3CSSC[C@H](NC(=O)[C@H](CCCNC(=N)N)NC(=O)[C@H](CC(C)C)NC(=O)[C@H](CC(=O)O)NC(=O)[C@H](CC(=O)O)NC(=O)[C@H](CCC(=O)O)NC(=O)[C@H](CC(N)=O)NC(=O)[C@H](Cc4c[nH]c5ccccc45)NC(=O)[C@@H]4CCCN4C(=O)CNC(=O)[C@H](CC(N)=O)NC(=O)[C@@H](NC(=O)CNC(=O)[C@H](Cc4ccccc4)NC(=O)CN)CSSC[C@H](NC(=O)[C@H](Cc4ccc(O)cc4)NC(=O)CNC(=O)CNC(=O)[C@H](CCCCN)NC(=O)[C@H](Cc4ccc(O)cc4)NC(=O)CNC(=O)[C@H](CCCCN)NC1=O)C(=O)N[C@@H](C)C(=O)N[C@@H](CCCCN)C(=O)NCC(=O)NCC(=O)N[C@@H](Cc1ccccc1)C(=O)N[C@@H](C(C)C)C(=O)N3)C(=O)N[C@@H](Cc1c[nH]cn1)C(=O)N[C@@H](CC(N)=O)C(=O)N[C@@H](Cc1c[nH]cn1)C(=O)N2 | – | pronase | 13.2 µM, pH 7.2, room temperature | 1.9 |
| CC[C@H](C)[C@@H]1NC(=O)[C@H](Cc2ccc(O)cc2)NC(=O)[C@@H](N)CSCSC[C@@H](C(=O)N2CCC[C@H]2C(=O)N[C@@H](CC(C)C)C(=O)NCC(N)=O)NC(=O)[C@H](CC(N)=O)NC(=O)[C@H](CCC(N)=O)NC1=O | – | phosphate buffer | 0.1 mg/mL, pH 7.0, 40 °C | 806 |
| C=C1NC(=O)C(=C)NC(=O)[C@H](CCCCN)NC(=O)[C@H](CC(C)C)NC(=O)[C@H]([C@@H](C)O)NC(=O)[C@H](CCCCN)NC(=O)[C@H](Cc2ccc(O)cc2)NC(=O)[C@H]([C@@H](C)CC)NC(=O)[C@H](Cc2ccccc2)NC(=O)CNC(=O)[C@H](Cc2c[nH]c3ccccc23)NC(=O)c2ccc(-c3nc(C(=O)OC)cs3)nc2-c2csc(n2)C(=C)NC(=O)CNC1=O | LC-MS | human serum | pH 7.6, 37 °C | 1.6 ± 0.1 |
| CC[C@H](C)[C@H](NC(=O)[C@H](NC(=O)[C@@H](CCC(N)=O)NC(=O)[C@@H](N)COC(=O)[C@@H](NC(=O)[C@@H](Cc1ccccc1)NC)[C@@H](C)CC)[C@@H](C)CC)C(=O)N[C@@H](CO)C(=O)N[C@H]1C(=O)N[C@@H](C)C(=O)N[C@@H](C2CCCCC2)C(=O)N[C@@H]([C@@H](C)CC)C(=O)O[C@H]1C | conversion to teixobactin | phosphate buffer | pH 7.4, room temperature | 0.5 |
| CCOC(=O)Nc1ccc2c(c1)CN1C(=S)N(c3ccc(C#N)c(C(F)(F)F)c3)C(=O)C1C2 (stereo not drawn) | – | – | intravenous, 5 mg/kg | 14.1 ± 3.53 |
| CC[C@H](C)[C@@H]1NC(=O)[C@H](CO)NC(=O)C(C)(CCCCN)NC(=O)[C@@H]2CSSC[C@@H](C(=O)N[C@@H](Cc3ccc(O)cc3)C(N)=O)NC(=O)[C@H](CCCCN)NC(=O)[C@@H]3CSSC[C@H](NC(=O)[C@H](CCCNC(=N)N)NC(=O)C(C)(CC(C)C)NC(=O)[C@H](CC(=O)O)NC(=O)[C@H](CC(=O)O)NC(=O)[C@H](CCC(=O)O)NC(=O)[C@H](CC(N)=O)NC(=O)[C@H](Cc4c[nH]c5ccccc45)NC(=O)[C@@H]4CCCN4C(=O)CNC(=O)[C@H](CC(N)=O)NC(=O)[C@@H](NC(=O)CNC(=O)[C@H](Cc4ccccc4)NC(=O)CN)CSSC[C@H](NC(=O)[C@H](Cc4ccc(O)cc4)NC(=O)CNC(=O)CNC(=O)[C@H](CCCCN)NC(=O)[C@H](Cc4ccc(O)cc4)NC(=O)CNC(=O)[C@H](CCCCN)NC1=O)C(=O)N[C@@H](C)C(=O)N[C@@H](CCCCN)C(=O)NCC(=O)NCC(=O)N[C@@H](Cc1ccccc1)C(=O)N[C@@H](C(C)C)C(=O)N3)C(=O)N[C@@H](Cc1c[nH]cn1)C(=O)NC(C)(C)C(=O)N[C@@H](Cc1c[nH]cn1)C(=O)N2 (stereo partly drawn) | HPLC | trypsin digestion | 13.2 µM, pH 8.5, room temperature, together with: trypsin 0.9 µM | 0.6 |
| O=C(NCc1ccc(Cl)cn1)C(=O)C(Cc1ccccc1)NC(=O)C1CC(F)CN1C(=O)C(NC(=O)C1CCC(F)(F)CC1)C1CCCCC1 (stereo not drawn) | – | – | pH 7.4 | > 9 |
| CC(C)C[C@H](NC(=O)[C@@H]1CCCN1C(=O)[C@H]1CSSC[C@@H](NC(=O)[C@@H](N)Cc2ccc(O)cc2)C(=O)NCC(=O)N[C@@H](Cc2ccccc2)C(=O)N1)C(=O)N[C@@H](Cc1c[nH]c2ccccc12)C(=O)NCc1cc(C(F)(F)F)cc(C(F)(F)F)c1 | – | rat plasma | 50 µg/mL, 37 °C | 4.9 |
| O=C(O)c1ccc(-c2nc(-c3ccccc3Cl)c3sccn23)cc1 | – | mouse liver microsomes | 1 µM | 0.503 |
| Cc1cc(C)n(-c2nc(-c3ccccc3)cc(=O)n2CC(=O)Nc2cccc([N+](=O)[O-])c2)n1 | – | human liver microsomes | pH 7.4, together with: NADPH | 0.917 ± 0.0983 |
| CCCC/C=C/C(=O)N[C@@H](Cc1cc(F)cc(F)c1)C(=O)N[C@H]1COC(=O)[C@@H]2CCCN2C(=O)[C@H](C)NC(=O)[C@@H]2C[C@@H](C(C)C)CCN2C(=O)[C@@H]2CCCN2C1=O | H-D exchange, 1H NMR, refers to: alanine amide hydrogen | CD3OD | 25 °C | 3.18 |
| CC(C)C(=O)OC[C@H]1O[C@@](C#N)(n2ccc(N)nc2=O)[C@H](O)[C@@H]1O | – | hamster plasma | conversion to CNC metabolite | < 0.0833 |
| C[C@@H](NC(=O)[C@@H](N)Cc1ccc(O)cc1)C(=O)NCC(=O)N[C@@H](Cc1ccc(F)cc1)C(=O)N1CCN(C(=O)[C@H](Cc2ccc(F)cc2)NC(=O)CNC(=O)[C@@H](C)NC(=O)[C@@H](N)Cc2ccc(O)cc2)CC1 | LC-MS | human plasma | 5 µM, 37 °C | > 1 |
| C=C1NC(=O)c2csc(n2)[C@H]([C@@H](C)O)NC(=O)[C@H](C)NC(=O)[C@H]([C@@H](C)CC)NC(=O)[C@H](CCCNC(=N)N)NC(=O)CNC(=O)[C@H](CCCNC(=N)N)NC(=O)[C@H]([C@@H](C)O)NC(=O)[C@H](CCCNC(=N)N)NC(=O)[C@H]([C@@H](C)CC)NC(=O)[C@H]([C@@H](C)O)NC(=O)[C@H](Cc2c[nH]c3ccccc23)NC(=O)c2ccc(-c3nc(C(=O)OC)cs3)nc2-c2csc1n2 | LC-MS | human serum | pH 7.6, 37 °C | 1.8 ± 0.1 |
| CC[C@H](C)[C@H](NC(=O)[C@@H](Cc1ccccc1)NC)C(=O)OC[C@H](N)C(=O)N[C@H](CCC(N)=O)C(=O)N[C@@H](C(=O)N[C@H](C(=O)OC[C@H](N)C(=O)N[C@H]1C(=O)N[C@@H](C)C(=O)N[C@@H](C2CCCCC2)C(=O)N[C@@H]([C@@H](C)CC)C(=O)O[C@H]1C)[C@@H](C)CC)[C@@H](C)CC | conversion to teixobactin | phosphate buffer | pH 7.4, room temperature | 0.167 |

For quick reference, copied from above:
| SMILES | assay | system | conditions | half-life [h] |
| --- | --- | --- | --- | --- |
| CCCC/C=C/C(=O)N[C@@H](Cc1cc(F)cc(F)c1)C(=O)N[C@H]1COC(=O)[C@@H]2CCCN2C(=O)[C@H](C)NC(=O)[C@@H]2C[C@@H](C(C)C)CCN2C(=O)[C@@H]2CCCN2C1=O | H-D exchange, 1H NMR, refers to: alanine amide hydrogen | CD3OD | 25 °C | 3.18 |
| CC(C)C(=O)OC[C@H]1O[C@@](C#N)(n2ccc(N)nc2=O)[C@H](O)[C@@H]1O | – | hamster plasma | conversion to CNC metabolite | < 0.0833 |
| C[C@@H](NC(=O)[C@@H](N)Cc1ccc(O)cc1)C(=O)NCC(=O)N[C@@H](Cc1ccc(F)cc1)C(=O)N1CCN(C(=O)[C@H](Cc2ccc(F)cc2)NC(=O)CNC(=O)[C@@H](C)NC(=O)[C@@H](N)Cc2ccc(O)cc2)CC1 | LC-MS | human plasma | 5 µM, 37 °C | > 1 |
